Experimental data gathered from unrelated publications.
Protocols differ between the studies behind these lines.

Compound	technique	medium	tested at	time	notes	unbound fraction
CC(C)NCC(O)COc1cccc2ccccc12 (stereo not drawn)	plasma protein binding	human plasma	–	–	–	0.172
Cc1nc([C@@](C)(CC2CC2)NC(=O)c2cc(OCC(F)(F)F)c(C3CC3)cn2)no1	equilibrium dialysis	human plasma	–	–	–	0.0103
N=C(CC(O)c1cc2c(F)cc(F)cc2c2cc(C(F)(F)F)ccc12)Nc1ccc(F)c(F)c1 (stereo not drawn)	equilibrium dialysis	diluted human plasma	100 ng/mL	24 h	plasma dilution 1:20	0.0027
CC(=O)CC(c1ccccc1)c1c(O)c2ccccc2oc1=O (stereo not drawn)	plasma protein binding	dog plasma	–	–	–	0.0529
CC(=O)c1c(C)c2cnc(Nc3ccc(C4CCN(CCS(C)(=O)=O)CC4)cn3)nc2n(C2CCCC2)c1=O	–	humans plasma	–	–	–	0.02
CC(C)CC(=O)OC[C@H]1O[C@@](C#N)(c2ccc3c(N)ncnn23)[C@H](O)[C@@H]1O	plasma protein binding	mouse plasma	0.9 µM	–	–	0.137
Cc1nonc1Cn1nnc2c(N3CC[C@H](O)C3)nc(C(C)(C)C)nc21	equilibrium dialysis	human plasma	–	–	–	0.0268
N=C(CC(O)c1cc2c(F)cc(F)cc2c2cc(C(F)(F)F)ccc12)Nc1ccc(Br)cc1 (stereo not drawn)	equilibrium dialysis	diluted human plasma	100 ng/mL	24 h	plasma dilution 1:20	0.0014
Cc1ccc2[nH]c(=S)n(Cc3cccnc3)c(=O)c2c1	–	human plasma	10 µM	–	–	0.035
NC(=O)[C@@H]1CC(F)(F)CN1C(=O)c1ccc(N2CC(F)(F)C2)c(OCC2CC2)n1	equilibrium dialysis	mouse plasma	–	–	–	0.0843
C/C=C1/CN2CC[C@@]34c5cc(O)ccc5N(C)[C@]35OC[C@@]4(C(=O)OC)[C@H]1C[C@H]25	–	rat plasma	1 µM	6 h	–	0.129
O=C(O)C(O)(c1cccs1)c1cccs1	in vitro	human plasma	–	–	–	0.026

Some of these lines once more:
Compound	technique	medium	tested at	time	notes	unbound fraction
Cc1nc([C@@](C)(CC2CC2)NC(=O)c2cc(OCC(F)(F)F)c(C3CC3)cn2)no1	equilibrium dialysis	human plasma	–	–	–	0.0103
N=C(CC(O)c1cc2c(F)cc(F)cc2c2cc(C(F)(F)F)ccc12)Nc1ccc(F)c(F)c1 (stereo not drawn)	equilibrium dialysis	diluted human plasma	100 ng/mL	24 h	plasma dilution 1:20	0.0027
